Results pooled from the literature.
Every numbered part comes from another study and shows a few of its results, in no order. Substitutions count along the parent as printed.

Block 1 — technique: aptamer microarray, sandwich; form: DNA with 2'F-ANA; matrix: in vitro; tested at: 200 nM; with: Cy3 exosite-II aptamer, 400 nM; reading: higher = stronger binding; oligonucleotide: GGTTGGTGTGGTTGG
Target: Prothrombin, mature alpha-thrombin (F2, Homo sapiens, UniProt P00734)
Setting: whole 15-mer aptamer, many near background
| Modification | mean fluorescence intensity |
| --- | --- |
| 2'F-ANA at 1 2 4 8 10 11 12 13 14 15 | 49.9 a.u. |
| 2'F-ANA at 3 6 8 14 15 | 589 a.u. |
| 2'F-ANA at 1 2 3 5 6 8 9 10 14 | 71.4 a.u. |
| 2'F-ANA at 3 4 5 7 12 13 | 169 a.u. |
| 2'F-ANA at 1 2 4 6 7 8 9 10 11 12 15 | 73.9 a.u. |
| 2'F-ANA at 1 2 3 6 9 10 11 13 | 61.7 a.u. |
| 2'F-ANA at 1 3 4 5 7 9 10 14 15 | 42.6 a.u. |
| 2'F-ANA at 1 2 3 5 7 10 12 14 | 63.1 a.u. |
| 2'F-ANA at 6 7 8 9 12 13 | 642 a.u. |
| 2'F-ANA at 2 3 4 6 11 12 15 | 651 a.u. |
| 2'F-ANA at 1 2 5 7 8 9 10 12 14 15 | 46.1 a.u. |
| 2'F-ANA at 1 2 3 5 9 10 13 | 45.2 a.u. |
| 2'F-ANA at 1 2 3 11 13 | 197 a.u. |
| 2'F-ANA at 1 2 4 5 7 9 10 11 | 47 a.u. |
| 2'F-ANA at 4 6 7 8 9 10 13 14 | 59.2 a.u. |
| 2'F-ANA at 3 5 7 11 12 13 | 199 a.u. |
| 2'F-ANA at 1 2 4 6 7 8 9 | 167 a.u. |
| 2'F-ANA at 1 4 5 6 7 11 12 14 15 | 46.6 a.u. |
| 2'F-ANA at 1 2 3 6 8 10 12 | 82.6 a.u. |
| 2'F-ANA at 1 3 5 6 10 11 12 14 | 46.2 a.u. |
| 2'F-ANA at 1 2 5 7 9 10 11 12 14 | 54.3 a.u. |

Block 2 — technique: DHFR PCA, deep sequencing; matrix: yeast; with: (+)-ABA 0.0091 µM; baseline: wild-type fitted maximum; reading: higher = stronger binding
Target: ABI1, truncated, D143A, DHFR fusion (Arabidopsis thaliana)
Setting: methotrexate growth selection, single substitutions
Parent: PYL1, truncated, DHFR fusion (Arabidopsis thaliana); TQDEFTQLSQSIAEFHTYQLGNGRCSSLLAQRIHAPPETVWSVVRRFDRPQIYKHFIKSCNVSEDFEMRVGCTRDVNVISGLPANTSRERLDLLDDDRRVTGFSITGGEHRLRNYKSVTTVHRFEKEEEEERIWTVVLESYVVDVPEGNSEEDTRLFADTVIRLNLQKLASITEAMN
| Substitution | relative binding score |
| --- | --- |
| S27C | 2.15% |
| A175F | 0.864% |
| V76Y | 8.62% |
| D92S | 0.678% |
| N61A | 28.3% |
| R32C | 15.7% |
| G148F | -7.62% |
| V70S | -2.23% |
| E127K | 54.8% |
| K54D | -7.8% |
| R46H | 3.9% |
| V44N | -1.1% |
| V136P | -7.81% |
| V43W | -4.29% |
| H55S | 6.72% |
| Y115V | 5.82% |
| L166F | -1.66% |
| R113P | 92.5% |
| V142F | -1.54% |
| E131M | 33.7% |
| D159F | -5.81% |
| E109S | 3.59% |
| T160Y | 20.1% |
| T6H | 51.1% |
| P50S | -0.886% |

Block 3 — technique: universal PBM; form: double-stranded DNA, one strand shown; matrix: in vitro; tested at: 600 nM; reading: higher = stronger binding
Target: Sal-like protein 4, full length isoform A (SALL4, Homo sapiens, UniProt Q9UJQ4, residues 1-1053)
UniProt Q9UJQ4, sequence (whole entry, looked up): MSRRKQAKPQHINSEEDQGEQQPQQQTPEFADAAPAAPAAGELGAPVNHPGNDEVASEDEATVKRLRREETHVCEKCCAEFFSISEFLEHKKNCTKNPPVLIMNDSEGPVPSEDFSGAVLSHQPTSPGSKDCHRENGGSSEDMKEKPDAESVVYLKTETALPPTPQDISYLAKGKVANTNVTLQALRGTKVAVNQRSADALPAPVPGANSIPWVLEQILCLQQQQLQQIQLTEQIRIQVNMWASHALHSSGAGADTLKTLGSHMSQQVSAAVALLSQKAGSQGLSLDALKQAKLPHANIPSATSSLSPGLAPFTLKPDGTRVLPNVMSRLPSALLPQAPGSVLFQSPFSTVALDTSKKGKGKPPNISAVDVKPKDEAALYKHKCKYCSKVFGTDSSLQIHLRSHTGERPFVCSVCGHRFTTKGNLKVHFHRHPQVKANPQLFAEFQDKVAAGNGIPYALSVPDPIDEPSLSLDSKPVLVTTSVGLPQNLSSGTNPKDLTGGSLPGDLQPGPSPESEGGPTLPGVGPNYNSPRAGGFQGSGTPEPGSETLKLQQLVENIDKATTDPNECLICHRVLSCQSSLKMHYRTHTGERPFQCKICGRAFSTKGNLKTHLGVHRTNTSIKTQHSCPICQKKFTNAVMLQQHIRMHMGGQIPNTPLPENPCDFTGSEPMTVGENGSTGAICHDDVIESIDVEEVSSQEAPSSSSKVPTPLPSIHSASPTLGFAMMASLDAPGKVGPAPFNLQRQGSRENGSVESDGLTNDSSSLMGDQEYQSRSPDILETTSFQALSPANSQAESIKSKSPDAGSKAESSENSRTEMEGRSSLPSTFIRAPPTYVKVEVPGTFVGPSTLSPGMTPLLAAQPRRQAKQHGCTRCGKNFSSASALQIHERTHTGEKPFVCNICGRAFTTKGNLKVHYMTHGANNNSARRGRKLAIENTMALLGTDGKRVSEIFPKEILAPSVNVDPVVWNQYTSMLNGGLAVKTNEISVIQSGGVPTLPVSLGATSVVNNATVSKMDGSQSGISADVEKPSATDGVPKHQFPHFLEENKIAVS
Setting: 8-mer, flanks averaged, mean of replicates
| Oligonucleotide | E-score |
| --- | --- |
| AACTCTCG | -0.104 |
| AAATCCCT | -0.013 |
| GGTTCTGA | -0.12 |
| ACAAGCCC | -0.243 |
| AAGTGTCT | 0.0623 |
| CATCAACG | 0.0243 |
| ATTCTTGC | 0.0494 |
| AACAGGTT | 0.143 |
| AGACAACG | -0.107 |
| ATGCGCCA | -0.00186 |
| AGTAAAGC | 0.205 |
| GATCTGTA | 0.0512 |
| AACCGTCT | -0.124 |
| TACTCGGA | 0.161 |
| ATTCCCTC | -0.0845 |
| ACTTTGCC | -0.112 |
| AGAGGCAC | -0.143 |
| CCACATAC | 0.121 |

Block 4 — technique: RNA Bind-n-Seq; form: RNA; matrix: in vitro; tested at: 365 nM; baseline: no-protein control; reading: higher = stronger binding
Target: RNA binding protein fox-1 homolog 2, RRM domain, GST-SBP tag (RBFOX2, Homo sapiens, UniProt O43251-10, residues 100-194)
Setting: natural RNA segment, single round, ends assumed
Constant ends, left off below: GGGAGUUCUACAGUCCGACGAUC … UGGAAUUCUCGGGUGCCAA
Construct (chain): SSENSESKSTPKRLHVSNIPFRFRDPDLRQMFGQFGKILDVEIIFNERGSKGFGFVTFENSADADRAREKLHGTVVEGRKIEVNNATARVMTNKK
| Oligonucleotide | RBNS enrichment (R) |
| --- | --- |
| UGCUCAGGGCUGAGUCUUAAAGAAGGGUUUGCCGGCCCUAACGCUGCAGCGCGUGCGCGGUGAGAGGCCCUUUUUGAGCCUGUUUACUCCUGUGGCCUUGGGCAGAACAG | 0.775 |
| UUAUUGUGGAUGGAUGUGGAUAUAUUCUGUACAGAAAACUACUCAUAUGGAAGUGGACUGAAUCCUAUGUAGAAACAUACACUGAACAUUGUUAUUCAUUUUGUAAAAUA | 0.684 |
| CAUCUGCCAUGCCCUAGCCACUAGAGUCUGGGUUCCAGCAGCUACCUGGGGACAUGUGGCUGCUCUAUUGUCUUACUGCGUCCCACAAUAUCUGAAUGUCUCAAUCCAAA | 0.504 |
| GUACAAGCCUCGACAGACACGUUCUGUCAGCACUUGCCCCGGCCACCUCAUUCUGGUUUCAGUGUUACUUGUGCGCAUGUGUGUGUGUGUCUGCAGAUGGAAAUCAUUCC | 0.416 |
| AAUUUAAUGCCCUAACUCUCUUAUUAAGGAGAAAUAGAAAAGAAGAAAUUUAUAAUGAAAAGAAGAUGAAUUUCAUUAUGUAAACGCUCAGGCAUGACUACGCUGUUUGA | 0.699 |
| GAAAAAAAGUACCAUUGUGCUAAACGCUACUGAGACUAACCAGGAAACCCUAACGAUGAAGAUGGUCCUGUCCCGGGAGCGGCUGGCUCCACCGAAGUGCUGGGGAGUUG | 0.332 |
| CCACAGGCCAGCACACGGUGGGGAAGGCAGGCCCAUGGCCUCCUGAGUUCAGAGGCAGCCGGAGCCUGGGGAGCCAUGCCCCAGGCCCUGUGACAUCCCCUCGCCCUGCA | 12.6 |
| AUUCCAGUCAUAUGUGUGUGUAACUGCAUCCUAUGAGAAGAGCACAAAUAUUGCUGUUCCAUGUUCUCCACUUUCAUUUUCCACUACAAAUGAAAAGCAAUUUUUGAGAC | 1.34 |
| CUUUAAUUCCCCCACAAAGAUUAUUAAUCACAUAUAUAGGGCCUUUUUGGUGUUGAAGGGAAUCAAACUACAUUUGCUGCUUGUGUGCGUGUGCAUUUGUGAACACGUAC | 0.785 |
| AAAAUGUAGGCUUAGUUUGUGUGUUGUCUCUUGAGUUUGUCGCUCAUGUGUGCAACAGGGUAUGGACUAUCUGUCUGGUGGCCCCGUUUCUGGUGGUCUGUUGGCAGGCU | 0.468 |
| CAAUUGUAUUGAAUCACAUAAUGAUUCAUAAGUAACUAGGGAACCAACUGAUUUUGCUAAGCAGUCUUCCCCUUAUAACACCACAGGCCCUUCUGACACACAAAAAAAUG | 0.333 |
| ACUUGUCCAGUGCUCCCACGGCCUGUACGGACACUGUGGAAGGCCUCCCUCUGUCGGCUUUUUGCCAUCUGUGAUAUGCCAUAGGUGUGACAAUCCGAGCAGUGGAGUCA | 0.273 |

Block 5 — technique: protein binding microarray; form: double-stranded DNA, one strand shown; matrix: in vitro; tested at: not given; baseline: not given; reading: higher = stronger binding
Target: Histone acetyltransferase KAT6A, winged helix 1, GST fusion (KAT6A, Homo sapiens, UniProt Q92794, residues 1-85)
Setting: 8-mer, flanks averaged, mean of 2 arrays, mostly near background
Construct (chain): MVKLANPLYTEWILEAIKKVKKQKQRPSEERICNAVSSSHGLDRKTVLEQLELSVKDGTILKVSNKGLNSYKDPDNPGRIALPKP
| Oligonucleotide | E-score |
| --- | --- |
| GGTTTCAC | -0.0358 |
| TCCAACAA | -0.252 |
| GGACAAAC | -0.0933 |
| AAACACGT | -0.0284 |
| AGTATGTA | -0.103 |
| ACCGGCTC | 0.162 |
| ATAGCGGG | 0.283 |
| CCGTTAAC | 0.313 |
| GCTTACCA | 0.0046 |
| GGTGTTGA | -0.0106 |
| GGTGGATA | -0.0525 |
| GAGCCGGA | 0.106 |
| TACCCCAA | -0.205 |
| AACCTCCT | -0.0347 |
| CCTGCCAG | -0.312 |
| CCATGTCG | -0.0896 |
| ACTTCCAC | -0.12 |
| ACCTCGCC | 0.207 |
| CCAACAGG | -0.173 |
| CGCTATTC | 0.235 |
| ACGCCCCA | -0.105 |
| ATAATTGG | -0.205 |
